Results pooled from the literature.
Parts stem from different laboratories: compare values within a part only.

Study 1 — method: universal PBM; molecule type: double-stranded DNA, one strand shown; matrix: in vitro; tested at: 600 nM; direction: higher = stronger binding
Target: Sal-like protein 4, full length isoform A (SALL4, Homo sapiens, UniProt Q9UJQ4, residues 1-1053)
Sequence of UniProt Q9UJQ4 (whole entry, looked up): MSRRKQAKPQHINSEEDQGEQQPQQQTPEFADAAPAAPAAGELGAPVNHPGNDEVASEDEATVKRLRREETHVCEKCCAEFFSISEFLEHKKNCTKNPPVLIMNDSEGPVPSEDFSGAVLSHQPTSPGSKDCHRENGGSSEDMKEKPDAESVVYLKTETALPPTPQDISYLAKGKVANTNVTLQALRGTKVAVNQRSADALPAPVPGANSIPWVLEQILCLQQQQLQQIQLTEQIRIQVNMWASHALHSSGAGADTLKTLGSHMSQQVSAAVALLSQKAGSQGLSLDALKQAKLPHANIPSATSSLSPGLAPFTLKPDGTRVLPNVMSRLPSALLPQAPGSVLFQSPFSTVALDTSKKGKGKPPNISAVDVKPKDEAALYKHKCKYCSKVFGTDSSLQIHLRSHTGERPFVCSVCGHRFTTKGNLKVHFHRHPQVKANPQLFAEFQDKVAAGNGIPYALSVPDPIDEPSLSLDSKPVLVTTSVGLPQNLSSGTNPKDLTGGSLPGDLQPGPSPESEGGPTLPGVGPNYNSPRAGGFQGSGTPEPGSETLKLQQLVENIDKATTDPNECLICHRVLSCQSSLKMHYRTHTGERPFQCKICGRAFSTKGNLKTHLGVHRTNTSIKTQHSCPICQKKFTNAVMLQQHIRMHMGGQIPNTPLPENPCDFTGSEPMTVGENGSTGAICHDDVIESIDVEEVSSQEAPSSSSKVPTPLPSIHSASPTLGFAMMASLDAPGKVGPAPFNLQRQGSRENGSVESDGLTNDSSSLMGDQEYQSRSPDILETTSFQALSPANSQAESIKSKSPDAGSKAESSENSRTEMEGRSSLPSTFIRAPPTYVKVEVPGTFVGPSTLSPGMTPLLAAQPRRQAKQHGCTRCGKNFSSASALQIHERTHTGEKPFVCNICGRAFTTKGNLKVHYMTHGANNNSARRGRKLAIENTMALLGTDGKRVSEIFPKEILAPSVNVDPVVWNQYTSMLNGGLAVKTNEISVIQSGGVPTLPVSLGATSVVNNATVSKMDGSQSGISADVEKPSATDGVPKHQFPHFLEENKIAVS
Setting: 8-mer, flanks averaged, mean of replicates
Strand	E-score
AGATTTTC	0.143
GGACGTAC	-0.18
ATAACGGG	0.131
ATGAGAAC	0.179
AGCGCAGC	-0.277

Study 2 — method: competition protein-binding microarray; molecule type: double-stranded DNA, one strand shown; matrix: in vitro; tested at: 2 µM; added: Pho4 competitor, 0.05 µM; direction: higher = stronger binding
Target: Centromere-binding protein 1, full length, His-tagged (CBF1, Saccharomyces cerevisiae, UniProt P17106, residues 1-351)
Sequence of UniProt P17106 (whole entry, looked up): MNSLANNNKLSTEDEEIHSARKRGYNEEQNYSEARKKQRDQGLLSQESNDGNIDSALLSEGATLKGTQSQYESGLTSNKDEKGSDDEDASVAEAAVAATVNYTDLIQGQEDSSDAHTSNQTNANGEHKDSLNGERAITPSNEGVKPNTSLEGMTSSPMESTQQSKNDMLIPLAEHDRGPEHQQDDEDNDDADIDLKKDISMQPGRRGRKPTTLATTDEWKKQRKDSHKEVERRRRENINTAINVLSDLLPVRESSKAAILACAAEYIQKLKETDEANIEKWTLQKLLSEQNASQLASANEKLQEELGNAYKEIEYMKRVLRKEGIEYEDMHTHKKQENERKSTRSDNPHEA
Setting: whole 60-bp probe, lowest competitor level
Strand	fluorescence intensity
TGCGCAACAACTTGTCATGTGGGTGTATGTCTAGAAGTCTTGATTCGCTTGACGCTGCTG	179 a.u.
AGCTCTCCATTATTTTGAAGTTTTAGACCCTATAATGTCTTGATTCGCTTGACGCTGCTG	75.3 a.u.
CTAACGAAGGTTTGGTTTGTGGGTGACAAGCCAAGTGTCTTGATTCGCTTGACGCTGCTG	84.5 a.u.
AAATTACTAAGTTGGGACGTGGGTGACGCCGTATGAGTCTTGATTCGCTTGACGCTGCTG	63.5 a.u.

Study 3 — method: protein binding microarray; molecule type: double-stranded DNA, one strand shown; matrix: in vitro; tested at: not given; baseline: not given; direction: higher = stronger binding
Target: Histone acetyltransferase KAT6A, winged helix 2, GST fusion (KAT6A, Homo sapiens, UniProt Q92794, residues 85-181)
Setting: 8-mer, flanks averaged, mean of 2 arrays, mostly near background
Residues (chain): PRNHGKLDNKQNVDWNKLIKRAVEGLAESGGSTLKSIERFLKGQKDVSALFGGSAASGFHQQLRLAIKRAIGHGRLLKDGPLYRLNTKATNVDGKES
Strand	E-score
GGAAGCAA	0.0638
ATGACCTA	-0.216
GAGGATGC	-0.0329
GAATCCAA	-0.0429
GAGCGCTA	0.0386

Further values, each from its own experiment
Molecule	target	test	system	conditions	scale	endpoint	result
PhoQ, residues 284 288 289 292 302 303 SIHLQL	PhoP, residues 12 14 15 18 19 DLLYY (Escherichia coli, UniProt P23836)	Sort-seq, item: YFP reporter	E. coli	PhoQ-PhoP variant library, added: 10 µM Mg2+	baseline: high Mg2+ state, higher = stronger signaling	fold induction	0.736
